# Experimental data collected from several papers.
# Each line is one published result; not all experiments were run side by side. ± marks the error that the study gave.
Compound,cell line,test,conditions,CC50
COc1ccc(NC(=O)N2CCCCN3[C@H](CN(C)C)[C@H](c4ccc(C#Cc5ccccc5)cc4)[C@@H]3C2)cc1,HEK-293T,,,5 µM
CC[C@H](C)[C@H](NC(=O)[C@H](Cc1c[nH]cn1)NC(=O)[C@@H](NC(=O)[C@@H](NC(=O)[C@H](CC(C)C)NC(=O)[C@H](CCCCN)NC(=O)[C@H](CCCCN)NC(=O)[C@@H]1CCCN1C(=O)[C@H](CC(C)C)NC(=O)[C@H](CC(C)C)NC(=O)[C@H](CCC(N)=O)NC(=O)[C@@H](NC(=O)CNC(=O)[C@H](CC(C)C)NC(=O)[C@H](CCC(N)=O)NC(=O)[C@H](CC(C)C)NC(=O)[C@H](CCCNC(=N)N)NC(=O)[C@H](CC(N)=O)NC(=O)[C@H](CCCCN)NC(=O)[C@H](CC(N)=O)NC(=O)[C@H](CCCNC(=N)N)NC(=O)[C@@H](NC(=O)[C@H](CO)NC(=O)[C@H](Cc1ccccc1)NC(=O)[C@H](CC(C)C)NC(=O)[C@H](Cc1ccccc1)NC(=O)[C@H](C)NC(=O)[C@H](CC(N)=O)NC(=O)[C@H](CC(N)=O)NC(=O)[C@@H](NC(=O)[C@H](CCCNC(=N)N)NC(=O)[C@@H](N)Cc1c[nH]cn1)C(C)C)[C@@H](C)CC)C(C)C)C(C)C)C(C)C)C(=O)N[C@@H](CCCNC(=N)N)C(=O)NCC(=O)N[C@@H](CCCCN)C(=O)N[C@@H](CCC(N)=O)C(=O)N1CCC[C@H]1C(=O)N[C@@H](C)C(=O)N[C@H](C(=O)N[C@@H](Cc1ccccc1)C(=O)O)C(C)C,HaCaT,"cell viability, MTT",,25.3 µM
Nc1nc(O)c2ncn(COC(CO)CO)c2n1,CRFK,"cytotoxicity, MTS",,> 100 µM
CC[C@H](C)[C@H](NC(=O)[C@H](CC(=O)O)NC(=O)CNC(=O)[C@H](CCCCN)NC(=O)[C@H](C)NC(=O)[C@H](CS)NC(=O)[C@H](CC(C)C)NC(=O)[C@H](CCCNC(=N)N)NC(=O)[C@H](CO)NC(=O)[C@H](Cc1ccccc1)NC(=O)[C@H](Cc1ccc(O)cc1)NC(=O)[C@H](C)NC(=O)[C@H](CC(C)C)NC(=O)[C@H](CC(C)C)NC(=O)[C@H](CC(C)C)NC(=O)[C@H](CC(C)C)NC(=O)[C@@H]1CCCN1C(=O)[C@@H](N)CCCNC(=N)N)C(=O)N1CCC[C@H]1C(=O)N1CCC[C@H]1C(=O)N1CCC[C@H]1C(=O)N[C@@H](CC(C)C)C(=O)N[C@@H](CCCNC(=N)N)C(=O)N[C@@H](C)C(=O)N[C@@H](CC(C)C)C(=O)N1CCC[C@H]1C(=O)N[C@@H](CCCNC(=N)N)C(=O)N[C@@H](Cc1ccc(O)cc1)C(=O)N[C@@H](CCCNC(=N)N)C(=O)N[C@@H](CC(C)C)C(=O)N[C@@H](CC(C)C)C(=O)N[C@@H](CCCNC(=N)N)C(=O)N[C@@H](CC(=O)O)C(=O)N[C@@H](CC(C)C)C(=O)N1CCC[C@H]1C(=O)N[C@@H](CCCNC(=N)N)C(=O)N[C@@H](CC(C)C)C(=O)N[C@@H](CC(C)C)C(=O)N[C@@H](CCCNC(=N)N)C(=O)O,HaCaT,"cell viability, MTT",24 h,418 µM
CCCC[C@H](NC(=O)[C@@H]1[C@@H]2[C@H](CN1C(=O)[C@@H](NC(=O)NC1(CS(=O)(=O)C(C)(C)C)CCCCC1)C(C)(C)C)C2(C)C)C(=O)C(=O)NC1CC1,HEK293T,"cell viability, MTT",48 (unit not given),72 µM
Nc1nc(O)c2ncn(COC(CO)CO)c2n1,CRFK,MTS,,> 100 µM
Nc1nc(CCc2ccccc2)c(Br)c(=O)[nH]1,CRFK,"cytotoxicity, MTS",,> 100 µM
CC[C@H](C)[C@H](N)C(=O)N[C@@H](CCCNC(=N)N)C(=O)N[C@@H](CCCNC(=N)N)C(=O)N[C@@H](C)C(=O)N[C@H](C(=O)N[C@@H](CC(N)=O)C(=O)N[C@@H](CCCCN)C(=O)N[C@@H](Cc1ccc(O)cc1)C(=O)N1CCC[C@H]1C(=O)N1CCC[C@H]1C(=O)N[C@H](C(=O)N[C@@H](CC(N)=O)C(=O)N[C@@H](CC(C)C)C(=O)N[C@@H](CCCCN)C(=O)N[C@H](C(=O)N[C@@H](CCCCN)C(=O)N[C@@H](CS)C(=O)N[C@@H](CC(N)=O)C(=O)N[C@@H](CCCNC(=N)N)C(=O)N[C@@H](CC(C)C)C(=O)N[C@@H](CC(N)=O)C(=O)N[C@@H](CO)C(=O)N[C@H](C(=O)N[C@@H](CC(=O)O)C(=O)N1CCC[C@H]1C(=O)N[C@@H](CCCCN)C(=O)N[C@@H](CCC(N)=O)C(=O)N1CCC[C@H]1C(=O)N1CCC[C@H]1C(=O)N[C@@H](CCCNC(=N)N)C(=O)N1CCC[C@H]1C(=O)N[C@@H](Cc1ccccc1)C(=O)N[C@@H](CCCNC(=N)N)C(=O)N[C@@H](CO)C(=O)N[C@@H](Cc1ccccc1)C(=O)N[C@H](C(=O)N1CCC[C@H]1C(=O)NCC(=O)N1CCC[C@H]1C(=O)N[C@@H](CC(C)C)C(=O)N[C@@H](CCCCN)C(=O)N[C@@H](C)C(=O)N[C@H](C(=O)N[C@@H](CC(C)C)C(=O)N[C@@H](CCCCN)C(=O)O)[C@@H](C)O)C(C)C)[C@@H](C)CC)[C@@H](C)CC)[C@@H](C)CC)[C@@H](C)CC,HaCaT,"cell viability, MTT",,37.1 µM
C=C[C@@H]1C[C@]1(NC(=O)[C@@H]1C[C@@H](Oc2ncc(OC)c3ccc(Cl)cc23)CN1C(=O)[C@@H](NC(=O)OC(C)(C)C)C(C)(C)C)C(=O)NS(=O)(=O)C1CC1,HEK293T,"cell viability, MTT",48 (unit not given),> 50 µM
Cc1cc(C)c(/C=C/c2nc(N)[nH]c(=O)c2Br)c(C)c1,CRFK,"cytotoxicity, MTS",,58 µM
C=C(C)[C@]12C[C@@H](C)[C@@]34O[C@](CCCCCCCCC)(O[C@@H]1[C@@H]3[C@@H]1O[C@]1(CO)[C@@H](O)[C@]1(O)C(=O)C(C)=C[C@H]14)O2,MT-4,cytotoxicity,,9.57 ± 0.86 µM
CCC[C@H](NC(=O)[C@@H]1[C@H]2CCC[C@H]2CN1C(=O)[C@@H](NC(=O)[C@@H](NC(=O)c1cnccn1)C1CCCCC1)C(C)(C)C)C(=O)C(=O)NC1CC1,HEK293T,"cell viability, MTT",48 (unit not given),> 50 µM
Cc1ccccc1-n1nnnc1Sc1ccc(C(=O)c2ccccc2)cc1[N+](=O)[O-],A549-hACE2-TMPRSS2,,24 h,> 50 µM
CC(C)C[C@H](NC(=O)[C@H](C)NC(=O)[C@H](CCCNC(=N)N)NC(=O)[C@H](CC(C)C)NC(=O)[C@H](CC(C)C)NC(=O)[C@H](CCCNC(=N)N)NC(=O)[C@@H]1CCCN1C(=O)[C@H](CC(C)C)NC(=O)[C@H](CC(=O)O)NC(=O)[C@H](CCCNC(=N)N)NC(=O)[C@H](CC(C)C)NC(=O)[C@H](CC(C)C)NC(=O)[C@H](CCCNC(=N)N)NC(=O)[C@H](Cc1ccc(O)cc1)NC(=O)[C@H](CCCNC(=N)N)NC(=O)[C@@H]1CCCN1C(=O)[C@H](CC(C)C)NC(=O)[C@H](C)NC(=O)[C@H](CCCNC(=N)N)NC(=O)[C@@H](N)CC(C)C)C(=O)N[C@@H](CC(=O)O)C(=O)N[C@@H](C)C(=O)N[C@@H](CCCNC(=N)N)C(=O)N1CCC[C@H]1C(=O)N[C@@H](Cc1ccccc1)C(=O)N[C@@H](C)C(=O)N[C@@H](CCC(=O)O)C(=O)N[C@@H](C)C(=O)N[C@H](C(=O)N[C@@H](CO)C(=O)N[C@@H](Cc1c[nH]c2ccccc12)C(=O)NCC(=O)N[C@@H](CCCNC(=N)N)C(=O)N[C@@H](CC(C)C)C(=O)NCC(=O)N[C@@H](C)C(=O)N[C@@H](CCCNC(=N)N)C(=O)N[C@@H](CCC(N)=O)C(=O)N[C@@H](CCCNC(=N)N)C(=O)N[C@@H](CCCNC(=N)N)C(=O)N[C@@H](CCC(N)=O)C(=O)N[C@@H](CO)C(=O)N[C@@H](CCCNC(=N)N)C(=O)O)[C@@H](C)O,HaCaT,"cell viability, MTT",24 h,112 µM
